Results gathered from unrelated publications.
Each numbered part is a random draw from the data of one study; scales do not carry over between parts. Substitutions count along the parent as printed.

Series 1 — method: RNA Bind-n-Seq; molecule type: RNA; matrix: in vitro; tested at: 365 nM; baseline: no-protein control; direction: higher = stronger binding
Target: RNA binding protein fox-1 homolog 2, RRM domain, GST-SBP tag (RBFOX2, Homo sapiens, UniProt O43251-10, residues 100-194)
Setting: natural RNA segment, single round, ends assumed
All sequences stand within: GGGAGUUCUACAGUCCGACGAUC … UGGAAUUCUCGGGUGCCAA
Residues (chain): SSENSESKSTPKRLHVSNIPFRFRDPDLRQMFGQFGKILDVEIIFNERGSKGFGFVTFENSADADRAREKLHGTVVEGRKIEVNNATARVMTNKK
Oligonucleotide	RBNS enrichment (R)
GCCAACAUUUAAAAAAGUAUGAAAAUGAUUUAUUUUUAUAUGAUGUAUACCCAUAAAGAAUGCUCAUAUUAAUGUACUUAAAUUACACAUGUAGAGCAUAUCUGUUAUAU	0.578
AAACAACCACAGAAACAUCUCUCCUUUGUGUAUUUUUCCCUCCCCCACCUUUCACCCCACAGUGGUUUUCAAUUAGUAUUUAUUCCAUGGUGGAGUCUGUGAGGCUAGAA	0.815
GGCUUGCUGCAGGAGGCCCACGUCUGGCCUUUUUCUGUGGGACACUUCUGACCUUGACACUCCGGCCUCAAGCAGUUGCUGCAGAGUGGUUCUUUUUGCAUUUAAUGCCC	0.372
UCUAAUUGUUUAAACUGUGUUUUAUACCAGUGUUUGCAAGUAAUUGGGUGUUAGCUUGAGAUGGUUAAAGGUGGUUUGGGGAGGGACUUCGUUGUAAUGGUUUUGCUGUA	7.84
UUUGGGUAUUUCUUCAGCAGGUCCCAAUCUACUGGUACCAAUUUACUGUAUUAGUCCGUUUUCACGCUGCUGAUAAAGACAUACCCGAGACUGGGAAGAAAAAGUGGUUU	0.367
CAAGAGUUUCUCUUCCAGAAGCCAAGAGGAGAACAAAGGUCCUAAUGCUGUACUAUUCCACCCUUUGGACGCCUCAUCCAGGACGCAGAGGACUCUAGGUUUAACAUUUU	0.434
AAUAUCUGCUUUAAUAUAGCUAUCAUUUCUUUUCCAAAAUUACUUCUCUCUAUCUGGAAUUUAAUUAAUCGAAAUGAAUUUAUCUGAAUAUAGGAAGCAUAUGCCUACUU	0.427
AGGUCUAGCCUUAGGAGCAAAUGUAGUAGAUAGUCGAAUAAUAAAUAACUUAAUGUUUUGGACAUAUUUUGUCUACUUUUGAGAAUUAUUUUUAAUAUGUAAAUUCUCUC	0.718
CUUUCAAAUAAAACACCAGUCAGGUACCUUUAUCCCAGUCUUAACUGUCCCAAAUCUGGAAGGUCCAGAGUAAGCAGGAUUCAGGGAGAGGGAGUGGAUAGCAAGUAUCC	0.557
CACCAGAGAGCUCAGGGCAGCUUUAUCUUCCAGGUUUAUCUAAAACUAUCUGUGUUGGGCUUCCCUGACACGGGAGAGGGGCAAGGAUAGACGAUUGACAUGGCACUGAU	0.482
AAUAUAACAGUUAAUGAACUUGGAGUUUAAAUUGUGUACAUUUUUAAAUUGUAAGAUUUUUACUGUAUAUUGAAGCUUAGUGUGAUUCAAUAAAUUGCUUGUAAUUUAAA	0.692
AUGUUAAUCCAUGCUACCUAAAGUAAAGACAGGCUGCUUGGCCAAGUGGACACACUUGAGAAACAGUGGAGGGAGAGUGUGAAAGCCACACGCUUGCCCUGGUUGGUCCU	0.358

Series 2 — method: protein binding microarray; molecule type: double-stranded DNA, one strand shown; matrix: in vitro; tested at: not given; baseline: not given; direction: higher = stronger binding
Target: Histone acetyltransferase KAT6A, both winged helices, GST fusion (KAT6A, Homo sapiens, UniProt Q92794, residues 1-181)
Setting: 8-mer, flanks averaged, mean of 2 arrays, mostly near background
Construct (chain): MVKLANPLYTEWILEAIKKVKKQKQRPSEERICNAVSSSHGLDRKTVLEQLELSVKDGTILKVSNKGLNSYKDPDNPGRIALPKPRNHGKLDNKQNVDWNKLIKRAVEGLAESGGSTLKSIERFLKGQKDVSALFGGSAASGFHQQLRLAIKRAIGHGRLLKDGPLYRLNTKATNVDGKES
Oligonucleotide	E-score
AGGGAAGC	-0.0209
ATTATAAG	-0.12
CGAGCGAA	-0.0286
ACTGAATA	-0.195
TCCCTTCA	-0.216
TATGTAGA	-0.166
ATCTCAAC	0.032
AGGCCTTG	-0.198
AGGCGTGG	0.00832
GTAAAATA	-0.0787
AAACTTGC	0.0638
AAGCACAG	-0.164
ATCCACTC	-0.231
TAGGAGCA	-0.195
CACGAAAA	-0.0732
AATGAACC	-0.0703
AGTAGGTG	-0.125
CATGACGC	0.271
ACGTCGTC	0.139
CAGAACGA	-0.168
ATCTTCAG	-0.0542
AGGCCGGC	0.2
CGGCAGAG	0.135
GCGATTAC	0.0746

Series 3 — target: CCNA1, cyclin fold, Cln2 fusion (human); method: yeast growth competition, sequencing; matrix: yeast; setting: weak parent motif; baseline: not given; direction: higher = stronger binding
Parent: CDC25A docking peptide (human); PPHRRRLLFACSP; partner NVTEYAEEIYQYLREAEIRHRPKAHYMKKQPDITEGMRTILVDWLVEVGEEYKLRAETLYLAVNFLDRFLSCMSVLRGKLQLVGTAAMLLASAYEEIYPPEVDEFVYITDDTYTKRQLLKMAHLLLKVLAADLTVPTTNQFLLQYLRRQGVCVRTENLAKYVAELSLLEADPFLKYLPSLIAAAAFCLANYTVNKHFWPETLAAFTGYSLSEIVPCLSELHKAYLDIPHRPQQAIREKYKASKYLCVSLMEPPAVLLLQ
Variant	normalised enrichment score
PPHRRRLLFATSP [C11T]	0.176
PPHRRRLLFACSK [P13K]	0.103
PPHERRLLFACSP [R4E]	0.246
PPHRRRLLFACEP [S12E]	0.329
PPHRERLLFACSP [R5E]	0.277
PPFRRRLLFACSP [H3F]	0.51
PQHRRRLLFACSP [P2Q]	0.441
PCHRRRLLFACSP [P2C]	0.547
PPHRRRCLFACSP [L7C]	0.321
PPHRRRTLFACSP [L7T]	0.395
PPHKRRLLFACSP [R4K]	0.409
IPHRRRLLFACSP [P1I]	0.249
PPHRRRLLFAPSP [C11P]	0.45
PPHRRRLLFACSS [P13S]	0.23
PPHRRRLLFACSH [P13H]	0.317
PPHRRRLVFACSP [L8V]	0.329
PPHHRRLLFACSP [R4H]	0.00715
PPHRRRLLRACSP [F9R]	0.604

Series 4 — method: protein-binding microarray; molecule type: double-stranded DNA, one strand shown; matrix: in vitro; tested at: 940 nM top; setting: 60-bp whole probe; added: salmon DNA 0.4 mg/ml; baseline: random background probes; direction: higher = stronger binding; all sequences stand within: GCCTAGCAC … GTCTTGATTCGCTTGACGCTGCTG
Target: Interferon regulatory factor 5, full length, phosphomimetic (IRF5, Homo sapiens, UniProt Q13568-2, residues 1-514, S451D/S453D/S456D/S462D)
Oligonucleotide	fitted relative affinity [z-score]
TTGGGTTTCGGTTTCGGTTAGTGCTAG	15.5
TCACTTTCCTTTATGTAACTGTGCTAG	1.88
TTAGGTTTCGGTTATCGGTTAGTGCTA	14.9
TTAGATTTTAGTATCGATTAGTGCTAG	6.85
TCAAATTCCTGAAATCTCACTGTGCTA	0.158
GACGGCTTCGACTTTCGGGACGTGCTA	0.412
TCACTTCTGGATTTTTTACTGTGCTAG	1.01
GACGGTTTCGTTATCGGGACGTGCTAG	9.36
GCCGGTCTCGGACTGGGGACGTGCTAG	1.23
GTAGATCTCAGTCTCGATTAGTGCTAG	3.07
TCACCTTTATGTCCTGTACTGTGCTAG	0.818
TCATTTATGCACTCTCTAACTGTGCTA	0.617
TATAGCTGATACATATAGCCGTGCTAG	-0.312
TTAGGTTTCGACTTTCGGTTGGTGCTA	9.34
TTCGATATCGGGTTTCGATTAGTGCTA	5.95
TTAGGACTGTTTTTCCTTTAGTGCTAG	0.0769
TTAGATATCAGTTTAGATTAGTGCTAG	0.466
TCAAGTTTTGAGCTCTGACTGTGCTAG	-0.446
GACGGTATCGACTTTCGGGACGTGCTA	4.12
TTAGGTTTGGGGTTTCGGTTAGTGCTA	5.8
GACTTTTTACCTGTGGTGTAGTGCTAG	-0.066
GACGGAGTGGACTTTCGGGACGTGCTA	0.537
GACGGTTTCGACTTTCGGCACGTGCTA	7.14
TAGAAATTTTTTTTCTAACTGTGCTAG	-0.105
GACGGTTTCTACTATCGGGACGTGCTA	2.83
